Published values collected from several papers.
EGFR: Epidermal growth factor receptor (EGFR, Homo sapiens, UniProt P00533)

CC(C)Cc1ccc(-c2nn(-c3ccc(S(C)(=O)=O)cc3)cc2/C=N/N=c2\[nH]c(-c3ccc([N+](=O)[O-])cc3)cs2)cc1 has an inhibition of 80.3% (EGFR; kinase activity, inhibitor; 10 µM).
Cc1cc(O)c(-c2ccc([C@@H](C)CN(C)C)cc2)c2c1[nH]c(=O)c1sccc12 has an inhibition of 2.45% (EGFR; inhibitor, KiNativ probe labelling; cell lysate; 0.1 µM).
NC/C(=C\F)COc1cccc(Cn2c(=S)[nH]c(=O)c3[nH]cnc32)c1 has an inhibition of < 50% (EGFR; radioligand binding, item: EGF binding; 10 µM).
For C=CC(=O)Nc1cc(Nc2nccc(Nc3cc(Cl)c(F)cc3C(C)(C)O)n2)c(OC)cc1N1CC[C@@H](N(C)C)C1, the inhibition was > 80% (EGFR; mouse; dose not given).
For COc1ccc(-c2nn(-c3ccc(S(C)(=O)=O)cc3)cc2/C=N/N=c2\[nH]c(-c3ccc(Br)cc3)cs2)cc1, the inhibition was 58.1% (EGFR; kinase activity, inhibitor; 0.1 µM).
For O=C(c1ccc(F)cc1)N(Cc1ccccc1)C1CCCCC1, the inhibition was -8% (EGFR; 10 µM).
COc1ccc(-c2nn(-c3ccc(S(C)(=O)=O)cc3)cc2C=N/N=c2\[nH]c(-c3ccc([N+](=O)[O-])cc3)cs2)cc1 has an inhibition of 82.7% (EGFR; kinase activity, inhibitor; 10 µM).
The inhibition of [2H]c1cc(C)c(NC(=O)c2cnc(Nc3cc(N4CCCCC4)nc(C)n3)s2)c(Cl)c1 is reported as < 30% (Epidermal growth factor receptor (EGFR, Homo sapiens, UniProt P00533, del746-750/T790M); 0.01 µM).
C#Cc1cc(-c2cc(Nc3nc(N[C@@H](C)c4ccc(F)cn4)ncc3Cl)n[nH]2)ccc1C=O gave an inhibition of 30.4% (Epidermal growth factor receptor (EGFR, Homo sapiens, UniProt P00533, L861Q); enzyme activity, inhibitor; 0.2 µM).

Repeated from above:
CC(C)Cc1ccc(-c2nn(-c3ccc(S(C)(=O)=O)cc3)cc2/C=N/N=c2\[nH]c(-c3ccc([N+](=O)[O-])cc3)cs2)cc1 has an inhibition of 80.3% (EGFR; kinase activity, inhibitor; 10 µM).
